Measured values of several laboratories.
Each numbered part is a random draw from the data of one study; scales do not carry over between parts. Substitutions count along the parent as printed.

Sample 1 — method: universal PBM; molecule type: double-stranded DNA, one strand shown; sample: in vitro; concentration: not given; reading: higher = stronger binding
Target: Sal-like protein 4, full length isoform B (SALL4, Homo sapiens, UniProt Q9UJQ4-2, residues 1-616)
Setting: 8-mer, flanks averaged, mean of replicates
| Strand | E-score |
| --- | --- |
| AAGCCCCA | -0.267 |
| GTCCTCAA | -0.00929 |
| CGACCTCC | -0.211 |
| ACACAATG | 0.216 |
| ACACTAGC | -0.0913 |
| AGGGCCGG | -0.311 |
| TAGAACAA | 0.223 |
| GAGCCCTC | -0.297 |
| CCTTGAAG | 0.0148 |
| GGAGGTAA | 0.0607 |
| CGCACGCA | -0.198 |
| GGGCGACC | -0.369 |
| CCTGTACG | -0.0821 |
| CCATATGA | 0.137 |
| ACCACCTC | -0.0849 |
| CTCTACGC | -0.241 |
| CCTCCTCG | -0.204 |
| CTGTTATC | 0.133 |
| ACGTTGTG | 0.0581 |
| CCAGAAGC | -0.218 |
| CCCGCGCC | -0.289 |

Sample 2 — method: RNA Bind-n-Seq; molecule type: RNA; sample: in vitro; concentration: 365 nM; relative to: no-protein control; reading: higher = stronger binding
Target: RNA binding protein fox-1 homolog 2, RRM domain, GST-SBP tag (RBFOX2, Homo sapiens, UniProt O43251-10, residues 100-194)
Setting: natural RNA segment, single round, ends assumed
Target sequence (chain): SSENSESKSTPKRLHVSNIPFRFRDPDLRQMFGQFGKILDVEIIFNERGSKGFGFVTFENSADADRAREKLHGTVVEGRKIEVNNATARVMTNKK
| Strand | RBNS enrichment (R) |
| --- | --- |
| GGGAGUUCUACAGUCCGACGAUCCUAGUAAGGGUUUUGAUCACACCAAGUUCUUUGUAUUGAGAAGUCUAGGGCAGAGCUCUGGGGGAUUGUUAUUUUACAUUACCUGGCCUAGAGUAGCAUAUUAGACAACAUGGAAUUCUCGGGUGCCAA | 0.498 |
| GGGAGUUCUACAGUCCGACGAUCGUAUCCCCCCCAAAAUUUUAGAAUCUUGCUAUAUCCAAGCAAGACAUUAUUAAUAUUUUUUUUAAACUAAUUUGGGGAGGGAGGGUUAGCUUAAGUGCUAAGUCAGGUGUUGGAAUUCUCGGGUGCCAA | 0.487 |
| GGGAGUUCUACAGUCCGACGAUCUGUGAUUAGAGAACCUUGGACAUUUUGCUGCUAAAGAAUCUUUUUUCCCCUCUCCCCCUUCCUGACCCUACUUGCACUGCUGUGGAUUUUUUUAAGAGAAGCAAAAACAAUGGAAUUCUCGGGUGCCAA | 1 |
| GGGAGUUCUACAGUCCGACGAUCCAAGAGCUGUCACAGACAAGUGGCAGAAUACAGGCACCAUGAGCUCAGGUUCUGACAAGGUGCAAAGCGUGGGGAGGCUCUGAGGAAUAUGAAGAGUGGGAAGGCGGCCUUGGAAUUCUCGGGUGCCAA | 0.364 |
| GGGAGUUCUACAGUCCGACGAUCGGAGGGUGCUUAGCUCCAGAGCAGGAUGGGACUUCCCCAGGCAGGAAGCACUUGAUGGAGAGCUGCCCAGCUCUCCUACAAGGUUAGUGCCCUCCACCUAGGGAAGCAUGUGGAAUUCUCGGGUGCCAA | 0.606 |
| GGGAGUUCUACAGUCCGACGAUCAAGUCUUUGAGAGGGGCCUGAAGAGCCUCCGGGCUCCUGGGACAUUGAUGUAGAGUUUUUAGUGAAGUGGGCACCUUUCUAGUCCACGGCAUUUGAAGAGAGCGAGGAGAUGGAAUUCUCGGGUGCCAA | 0.556 |
| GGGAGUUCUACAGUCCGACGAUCAGAUGGAGUACCAGCACCGAAAAUGGGUUGAGGGAGGAUGGGUUGUAUGUAUGUUUCUGCCCACUAAUUUUGAGCAGCCAUAUUAUGAAUUAAAUCGUCACAGCCAAGUAUGGAAUUCUCGGGUGCCAA | 1.34 |
| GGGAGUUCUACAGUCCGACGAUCAGCUCCGGUGACUGCAUGAGCCACCUGGCCACAGUCCUCCCAUGGAGGGCCUGCCGUGACGCUCAGUGGAGAGGGCAGGGCCUGUGUCUCCACUUAGGCCACACAGUGAUUGGAAUUCUCGGGUGCCAA | 0.227 |
| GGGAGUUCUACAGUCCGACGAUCCUGAGGACAGUGUGAAUAAUUGUAGCCUGACCUUUUGCAUUCUCCAGCUCAGCUGCUAGGAAGACUUACUUGUCAUGAUUUAUAUAAUAAAAUUAAGGACACUGAAAAUUUGGAAUUCUCGGGUGCCAA | 0.573 |

Sample 3 — method: DHFR PCA, deep sequencing; sample: yeast; added: (+)-ABA 0 µM; relative to: wild-type fitted maximum; reading: higher = stronger binding
Target: ABI1, truncated, D143A, DHFR fusion (Arabidopsis thaliana)
Setting: methotrexate growth selection, single substitutions
Starting sequence: PYL1, truncated, DHFR fusion (Arabidopsis thaliana); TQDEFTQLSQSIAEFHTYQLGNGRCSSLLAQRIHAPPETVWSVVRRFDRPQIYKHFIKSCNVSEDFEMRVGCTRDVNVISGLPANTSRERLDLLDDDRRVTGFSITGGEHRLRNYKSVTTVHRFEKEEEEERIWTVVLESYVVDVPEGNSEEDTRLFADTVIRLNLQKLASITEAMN; partner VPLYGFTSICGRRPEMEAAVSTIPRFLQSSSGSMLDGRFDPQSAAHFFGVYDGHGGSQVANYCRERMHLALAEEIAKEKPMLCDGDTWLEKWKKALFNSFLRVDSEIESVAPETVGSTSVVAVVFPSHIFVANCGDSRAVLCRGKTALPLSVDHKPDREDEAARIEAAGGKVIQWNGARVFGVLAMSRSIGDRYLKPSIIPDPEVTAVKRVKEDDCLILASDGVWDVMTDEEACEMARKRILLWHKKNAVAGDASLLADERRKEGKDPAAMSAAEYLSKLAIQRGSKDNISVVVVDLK
| Substitution | relative binding score [%] |
| --- | --- |
| F103M | -3.21 |
| S11M | 20.1 |
| A35K | -1.98 |
| S63T | 16.1 |
| K126I | 14.9 |
| R113G | 2.92 |
| C60L | -1.45 |
| S171A | 36.9 |
| I12T | 2.45 |
| L82C | 13.8 |
| Q31P | -4.21 |
| R155D | -10.7 |
| I105N | -1.12 |
| E67V | 37.7 |
| Q7M | 20.8 |
| C72W | -0.132 |
| S59D | 21.9 |
| V142I | 16.4 |
| W41L | -0.582 |
| E147N | 3.49 |
| P146I | 15.9 |
| R46I | 0.309 |
| D96I | -28.6 |
| D159M | -13.2 |
| N85K | 36.8 |

Sample 4 — method: RNA Bind-n-Seq; molecule type: RNA; sample: in vitro; concentration: not given; relative to: input RNA pool; reading: higher = stronger binding
Target: RING finger protein unkempt homolog, zinc fingers 1-6, GST-SBP tag (UNK, Homo sapiens, UniProt Q9C0B0, residues 30-357)
Setting: RNA with constant flanks, human-mouse chimeric sites, ends assumed
Target sequence (chain): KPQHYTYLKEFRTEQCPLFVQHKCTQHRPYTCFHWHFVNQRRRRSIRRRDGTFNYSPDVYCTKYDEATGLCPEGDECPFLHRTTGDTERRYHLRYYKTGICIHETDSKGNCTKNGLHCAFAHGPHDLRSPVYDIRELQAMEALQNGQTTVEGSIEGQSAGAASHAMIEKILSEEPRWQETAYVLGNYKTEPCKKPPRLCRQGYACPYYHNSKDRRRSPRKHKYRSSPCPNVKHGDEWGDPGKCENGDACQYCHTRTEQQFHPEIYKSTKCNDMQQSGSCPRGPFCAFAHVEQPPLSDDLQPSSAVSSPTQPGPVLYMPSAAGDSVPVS
| Strand | bound/input enrichment [ratio] |
| --- | --- |
| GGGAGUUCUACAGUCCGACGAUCCAGGGCAUCAUCUCUCGAGCUGUUAAACACCUGUUCAAGAGUAUUGAUGAGAAAAAGACCUCAGCGAUUAAAAACGGGCUGCCCCCUCCAGAUUUUAAAGUGAAUGCCCAGUUCCUAGAGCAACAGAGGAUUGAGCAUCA | 0.504 |
| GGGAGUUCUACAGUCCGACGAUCUCAACUGACAACAUCAAAUACCAGCCUAAGGGGGGUCAGGUACAAAUUGUUACCAAGAAAAUAGACCUAAGCCAUGUGACAUCCAAAUGUGGCUCUCUGAAGAACAUCCGCCACAGGCCACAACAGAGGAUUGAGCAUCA | 0.395 |
| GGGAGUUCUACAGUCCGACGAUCACACAAUAUGAGACCAACAGCAUGGACUUCAAAGUUGGGGCAGAUGGGACAGUCUUCGCCACUAGGGAGCUGCAGGUCCCCUCCGAGCAGGUGGCCUUCACGGUGACUGCAUGGGACAGCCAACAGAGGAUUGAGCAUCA | 0.168 |
| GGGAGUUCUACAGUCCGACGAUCCGCUGGCCCAAGCUGAUGGACUCUGAUGGCCUCCAUCAAGGUAUUAUGUGUGCCUUCUCUUAGUUAUUGUUUUCGGGAUGUUAUGAAUCUCAGUACUGUGGUUUGAAAGCACCAGCUUUGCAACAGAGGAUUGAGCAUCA | 15.6 |
| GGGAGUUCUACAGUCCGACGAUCCAGCCUCAGAGCCCAGACUUCCUGGAUAUUACCAACCCUAAAGCGGUAUUAGAAAAUGCAUUGAGAAACUUUGCCUGUCUGACGACUGGGGAUGUGAUUGCUAUCAACUACAAUGAGAAGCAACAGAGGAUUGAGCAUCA | 0.288 |
| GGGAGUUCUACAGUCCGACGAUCGCAGGAUCUUCUAAGUACCAGUGGGGCAUUAUGAAAUCCCUUGGGCUCUCUGAUGACGACAUAGUGAAGUUUUCUGAAGCAGAGCACUGGCUUGAUUAUUUCCCACCACUGGCCGUUCAGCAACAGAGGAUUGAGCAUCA | 0.0985 |
| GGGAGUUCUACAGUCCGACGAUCGAAACAUUUAAAUUUAAAGAAGCUGUUGUUUUAGGGAGUACGGACUUUCUAGAAGAUGAUAUAGAGAAAAUUGUAGAAGAACUGGGGAAAGAAUACAAGGGCAACGCCUACCAUCUGAUGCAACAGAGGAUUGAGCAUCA | 2.2 |
| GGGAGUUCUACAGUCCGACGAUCCAGCCUCAGAGCCCUGACUUCCUGGAUAUUACCAACCCUAAAGCGGUAUUAGAAAAUGCAUUGAGAAACUUCGCCUGUCUGACGACUGGAGAUGUGAUUGCUAUCAACUAUAAUGAAAAGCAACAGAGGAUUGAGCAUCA | 0.695 |
| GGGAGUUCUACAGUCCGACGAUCGAGUCGAGCAAACUUGAAACUACAGAAUAUCUUGCAGCCUCAGUGUUUUUACUUGCCGCGAUAGCAUUGGGGUUUUAUAGGUUCUGGAAGGAGAACUGACGAUGAUGCUGCCGCUGCUGCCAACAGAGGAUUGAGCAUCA | 0.147 |
| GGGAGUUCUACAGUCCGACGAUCGAUCAUGAACCACCAUCAGAAAUGAAGGAUGAGACUACCAGACGAGCCAAAACAGCUAGCACUAGAAAAAGUAAACUUAACCUUGCAGAGUUCCUUAAUGAAGAUACAAGUUAAGAGAGCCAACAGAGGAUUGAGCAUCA | 3.48 |
| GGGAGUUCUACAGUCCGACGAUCGUGACUGGUGUUAAGAUUUACCCUCAGCAAAGAAGUGCAGUAGUCACCAUAAUUCCAUCUGUGGUGAGUGCCAGUCAGAUAAAAGAGCUGGUCCCAGACCUCAGUUUAGACAUGGGAACUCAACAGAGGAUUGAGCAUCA | 0.352 |

Repeated from above (sample 1):
| Strand | E-score |
| --- | --- |
| ACACTAGC | -0.0913 |
| GTCCTCAA | -0.00929 |
| GAGCCCTC | -0.297 |
| CGACCTCC | -0.211 |
| ACGTTGTG | 0.0581 |
| TAGAACAA | 0.223 |
| CCATATGA | 0.137 |
| CCTTGAAG | 0.0148 |
| ACACAATG | 0.216 |
